Measurements pooled from the literature.
Lines come from different studies, so protocols differ. Values joined by “and” are separate records of one study, mostly repeats; a detail may differ. Numbers after ± are the reported error.
NPY1R: Neuropeptide Y receptor type 1 (NPY1R, Homo sapiens, UniProt P25929)
Sigmar1: Sigma non-opioid intracellular receptor 1 (Sigmar1, Rattus norvegicus, UniProt Q9R0C9)
MAOB: Amine oxidase [flavin-containing] B (MAOB, Homo sapiens, UniProt P27338)
ampC: Beta-lactamase (ampC, Escherichia coli K-12, UniProt P00811)
MC1R: Melanocyte-stimulating hormone receptor (MC1R, Homo sapiens, UniProt Q01726)
Oprk1: Kappa-type opioid receptor (Oprk1, Rattus norvegicus, UniProt P34975)

For `CC(=O)N[C@@H](CCCNC(=N)N)C(=O)N[C@@H](Cc1ccc(O)cc1)C(=O)N[C@@H](CCCNC(=N)NC(=O)NCCCCN)C(=O)N[C@H](CC(C)C)C(=O)N[C@@H](CCCNC(=N)N)C(=O)N[C@@H](Cc1ccc(O)cc1)C(N)=O`, the Ki was greater than 5000 nM (NPY1R; ligand displacement, radioligand).
With `CCCCc1ccc2c(c1)sc(=O)n2CCCCCCN1CCCCCC1` the Ki was 12 ± 0.7 nM (Sigmar1; binding, radioligand binding; rat liver membranes; with: [3H](+)-pentazocine 5 nM).
For `NC(=S)N/N=C/c1ccc(OCc2ccccc2)cc1`, the Ki was 72 nM (MAOB; enzyme activity, inhibitor).
The Ki of `CC(C)[C@H](NC(=O)c1ccc(CCc2nc3c(c(=O)[nH]2)CCC3)cc1)C(=O)NC1COC1` is reported as 12.2 nM and 12 nM (Collagenase 3 (MMP13, Homo sapiens, UniProt P45452); enzyme activity, inhibitor).
With `OB(O)c1ccc(OCc2ccccc2)nc1F` the Ki was 170 nM (ampC; enzyme activity, inhibitor; with: CENTA).
For `O=C(O)Cc1cccc(NS(=O)(=O)c2cccc(Cl)c2O)c1`, the Ki was 1300 nM (ampC; enzyme activity, inhibitor; pH 6.5, 0.01% Triton X-100, 1% DMSO, with: CENTA or nitrocefin substrate).
The Ki of `O=C(Nc1cccc(-c2nn[nH]n2)c1)c1cc(-c2ccccc2)cc(C(F)(F)F)c1` is reported as 10400 nM (Beta-lactamase CTX-M-27 (Escherichia coli, UniProt Q840M4); enzyme activity, inhibitor, absorbance; pH 7).
`CCCCCCCCCCCCCCN(O)C(=O)CCCCC[C@@H]1NC(=O)[C@H]2CCCN2C(=O)[C@H](Cc2ccccc2)NC(=O)[C@H](Cc2ccccc2)NC1=O` has a Ki of 2.1 nM (Histone deacetylase 11 (HDAC11, Homo sapiens, UniProt Q96DB2); enzyme activity, inhibitor, fluorescence).
With `CCCCCCCCCCCCCCCc1ccc(C(F)P(=O)(O)O)cc1` (racemic) the Ki was 4970 nM (Autotaxin (ENPP2, Homo sapiens, UniProt Q13822); free enzyme).
`O=C(/C=C/c1ccccc1)c1cc2ccccc2oc1=O` has a Ki of 500 nM (MAOB; enzyme activity, inhibitor).
`O=C(CCS(=O)O)c1ccccc1` has a Ki of 70000 nM (ampC).
`CC[C@H](C)[C@H](NC(=O)CN)C(=O)N[C@H](C(=O)N[C@@H](CC(N)=O)C(=O)N[C@H](C(=O)N[C@@H](CC(C)C)C(=O)N[C@@H](CCC(N)=O)C(=O)N[C@@H](CCCCN)C(=O)N[C@@H](Cc1ccc(O)cc1)C(=O)N[C@@H](Cc1ccc(O)cc1)C(=O)N[C@H]1CSSC[C@@H]2NC(=O)[C@H](CCC(N)=O)NC(=O)[C@H](CCC(N)=O)NC(=O)CNC(=O)[C@H](CCC(N)=O)NC(=O)[C@H]([C@@H](C)O)NC(=O)[C@H](CO)NC(=O)[C@@H]3CSSC[C@H](NC(=O)[C@H](CCCNC(=N)N)NC(=O)CNC(=O)CNC(=O)[C@H](CCCNC(=N)N)NC(=O)[C@H](C(C)C)NC(=O)[C@H](CCCNC(=N)N)NC1=O)C(=O)N[C@@H](C)C(=O)N[C@@H](C(C)C)C(=O)N[C@@H](CC(C)C)C(=O)N[C@@H](CO)C(=O)N[C@@H](CSSC[C@@H](C(=O)N[C@@H](CCCNC(=N)N)C(=O)N[C@@H](CCCNC(=N)N)C(=O)N[C@@H](CCCCN)C(=O)N[C@@H](CCCCN)C(N)=O)NC2=O)C(=O)N[C@@H](CC(C)C)C(=O)N1CCC[C@H]1C(=O)N[C@@H](CCCCN)C(=O)N[C@@H](CCC(=O)O)C(=O)N[C@@H](CCC(=O)O)C(=O)N[C@@H](CCC(N)=O)C(=O)N[C@@H]([C@@H](C)CC)C(=O)NCC(=O)N[C@@H](CCC(N)=O)C(=O)N3)[C@@H](C)O)[C@@H](C)CC` has a Ki of 189 nM (MC1R; ligand displacement in cells).
For `CC(=O)N(C)[C@@H](Cc1ccccc1)C(=O)N[C@@H](Cc1ccccc1)C(=O)N[C@@H](CC1CCCCC1)C(=O)N[C@@H](CCCNC(=N)N)C(=O)N[C@@H](CC(C)C)C(=O)N[C@@H](CCCNC(=N)N)C(=O)N[C@@H](CCCNC(=N)N)C(=O)N[C@H](C)C(=O)N[C@@H](CCCNC(=N)N)C(=O)N1CCC[C@H]1C(=O)N[C@@H](CCCCN)C(N)=O`, the Ki was 7.85 nM (Oprk1; ligand displacement, radioligand).
With `CC[C@H](C)[C@H](NC(=O)[C@@H]1CSCC(=O)NCCCC[C@H](NC(=O)[C@H](Cc2ccc(O)cc2)NC(=O)CNC(C)=O)C(=O)N[C@@H](CO)C(=O)N[C@@H](CCCNC(=N)N)C(=O)N[C@@H](CO)C(=O)N[C@@H](Cc2ccc(O)cc2)C(=O)N2CCC[C@H]2C(=O)N2CCC[C@H]2C(=O)N[C@@H](C(C)C)C(=O)N1)C(=O)N1CCC[C@H]1C(=O)N[C@@H](CC(=O)O)C(N)=O` the Ki was 58000 ± 1000 nM (Mannan-binding lectin serine protease 2 (Homo sapiens, UniProt O00187); with: 250 µM Z-L-Lys-SBzl substrate).
For `Cc1cc2c(cc1Cl)-c1c(c(C(=O)NC3C4(C)CCC(C4)C3(C)C)nn1-c1ccc(Cl)cc1Cl)C2` (stereo not shown), the Ki was 3250 ± 750 nM (Cannabinoid receptor 1 (Cnr1, Mus musculus, UniProt P47746); binding, radioligand displacement; mouse brain homogenate without cerebellum; with: [3H]CP-55,940).
`O=c1sc2ccccc2n1CCCCCN1CCCCCC1` gave a Ki of 7 ± 0.3 nM (Sigmar1; binding, radioligand binding; rat liver membranes; with: [3H](+)-pentazocine 5 nM).
The Ki of `CC[C@H](C)[C@H](NC(=O)CN)C(=O)N[C@H](C(=O)N[C@@H](CC(N)=O)C(=O)N[C@H](C(=O)N[C@@H](CC(C)C)C(=O)N[C@@H](CCC(N)=O)C(=O)N[C@@H](CCCCN)C(=O)N[C@@H](Cc1ccc(O)cc1)C(=O)N[C@@H](Cc1ccc(O)cc1)C(=O)N[C@H]1CSSC[C@@H]2NC(=O)[C@H](CCCCN)NC(=O)[C@H](CCCNC(=N)N)NC(=O)CNC(=O)[C@H](CCCNC(=N)N)NC(=O)[C@H]([C@@H](C)O)NC(=O)[C@H](CO)NC(=O)[C@@H]3CSSC[C@H](NC(=O)[C@H](CCC(N)=O)NC(=O)CNC(=O)CNC(=O)[C@H](CCC(N)=O)NC(=O)[C@H](C(C)C)NC(=O)[C@H](CCCNC(=N)N)NC1=O)C(=O)N[C@@H](C)C(=O)N[C@@H](C(C)C)C(=O)N[C@@H](CC(C)C)C(=O)N[C@@H](CO)C(=O)N[C@@H](CSSC[C@@H](C(=O)N[C@@H](CCC(N)=O)C(=O)N[C@@H](CCC(N)=O)C(=O)N[C@@H](CCC(N)=O)C(=O)N[C@@H](CCC(N)=O)C(N)=O)NC2=O)C(=O)N[C@@H](CC(C)C)C(=O)N1CCC[C@H]1C(=O)N[C@@H](CCC(N)=O)C(=O)N[C@@H](CCC(=O)O)C(=O)N[C@@H](CCC(=O)O)C(=O)N[C@@H](CCC(N)=O)C(=O)N[C@@H]([C@@H](C)CC)C(=O)NCC(=O)N[C@@H](CCCCN)C(=O)N3)[C@@H](C)O)[C@@H](C)CC` is reported as 422 nM (MC1R; ligand displacement in cells).
For `CC(C)CN(C[C@@H](O)[C@H](Cc1ccccc1)NC(=O)c1cccc(O)c1)S(=O)(=O)c1ccc(-c2ccno2)s1`, the Ki was 2.49 ± 0.251 nM (Gag-Pol polyprotein, protease (Human immunodeficiency virus type 1 group M subtype B, UniProt P03369); enzyme activity, inhibitor, FRET; HIV-1).
The Ki of `C[n+]1cn([C@@H]2O[C@H](COP(=O)([S-])OP(=O)(O)OP(=O)(O)OP(=O)([S-])OC[C@H]3O[C@@H](n4c[n+](C)c5c(O)nc(N)nc54)[C@H](O)[C@@H]3O)[C@@H](O)[C@H]2O)c2nc(N)nc(O)c21` (stereo partly shown) is reported as 121000 ± 16000 nM (mRNA decapping complex subunit 2 (dcp2, Schizosaccharomyces pombe, UniProt O13828); mRNA decapping, inhibitor; single turnover, free enzyme, with: Dcp2 alone, capped 29-nt RNA).
`CC(=O)N[C@@H](CCCNC(=N)N)C(=O)N[C@@H](Cc1ccc(O)cc1)C(=O)N[C@@H](CCCNC(=N)NC(=O)NCCCCN)C(=O)N[C@@H](CC(C)C)C(=O)N[C@@H](CCCNC(=N)N)C(=O)N[C@@H](Cc1ccc(O)cc1)C(=O)O` has a Ki of greater than 5000 nM (Neuropeptide Y receptor type 5 (NPY5R, Homo sapiens, UniProt Q15761); ligand displacement, radioligand).
`CC(=O)NCC(=O)N(C)[C@@H](Cc1ccccc1)C(=O)N[C@@H](Cc1ccccc1)C(=O)N[C@@H](Cc1ccccc1)C(=O)N[C@@H](CCCNC(=N)N)C(=O)N[C@@H](CC(C)C)C(=O)N[C@@H](CCCNC(=N)N)C(=O)N[C@@H](CCCNC(=N)N)C(=O)N[C@H](C)C(=O)N[C@@H](CCCNC(=N)N)C(=O)N1CCC[C@H]1C(=O)N[C@@H](CCCCN)C(N)=O` gave a Ki of 8.04 nM (Oprk1; ligand displacement, radioligand).
The Ki of `CNC(=O)C1CCN(c2ccccc2NC(=O)c2ccc(-c3cc(O)ccc3C)c(C)n2)CC1` is reported as 0.7 nM (Ephrin type-A receptor 5 (EPHA5, Homo sapiens, UniProt P54756); cell-free assay, TR-FRET).
The Ki of `CC1(CCN2CCc3ccccc3C2)Cc2cc(Cl)ccc2C1=O` (single isomer, unassigned) is reported as 80.7 nM (5-hydroxytryptamine receptor 7 (HTR7, Homo sapiens, UniProt P34969); binding, radioligand binding).
For `CCCC(=O)c1ccc2c(c1)sc(=O)n2CCCCCN1CCCCCC1`, the Ki was 16.3 ± 0.6 nM (Sigmar1; binding, radioligand binding; rat liver membranes; with: [3H](+)-pentazocine 5 nM).
With `CC(=O)N[C@@H](Cc1ccc(O)cc1)C(=O)N[C@@H](CCCNC(=N)NC(=O)NCCCCN)C(=O)N[C@@H](CC(C)C)C(=O)N[C@@H](CCCNC(=N)N)C(=O)N[C@@H](Cc1ccc(O)cc1)C(N)=O` the Ki was greater than 5000 nM (NPY1R; ligand displacement, radioligand).
